Experimental data of several laboratories.
Compare with care: the assays were run in different laboratories. Converted amounts (≈) assume the structure as drawn.
Sequence of UniProt P18825 (whole entry, looked up): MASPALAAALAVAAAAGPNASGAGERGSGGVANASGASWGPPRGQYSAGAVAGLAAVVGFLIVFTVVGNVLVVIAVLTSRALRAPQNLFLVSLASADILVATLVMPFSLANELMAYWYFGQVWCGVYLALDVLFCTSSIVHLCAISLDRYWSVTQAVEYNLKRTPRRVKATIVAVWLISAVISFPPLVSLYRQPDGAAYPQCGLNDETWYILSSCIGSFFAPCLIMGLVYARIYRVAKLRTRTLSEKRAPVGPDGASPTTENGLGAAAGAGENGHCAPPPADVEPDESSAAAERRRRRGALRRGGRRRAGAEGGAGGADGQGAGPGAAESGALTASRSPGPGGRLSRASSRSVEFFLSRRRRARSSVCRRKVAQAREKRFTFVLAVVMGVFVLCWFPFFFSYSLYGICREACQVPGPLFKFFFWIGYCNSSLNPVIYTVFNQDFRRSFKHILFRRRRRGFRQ
Sequence of UniProt Q00534 (whole entry, looked up): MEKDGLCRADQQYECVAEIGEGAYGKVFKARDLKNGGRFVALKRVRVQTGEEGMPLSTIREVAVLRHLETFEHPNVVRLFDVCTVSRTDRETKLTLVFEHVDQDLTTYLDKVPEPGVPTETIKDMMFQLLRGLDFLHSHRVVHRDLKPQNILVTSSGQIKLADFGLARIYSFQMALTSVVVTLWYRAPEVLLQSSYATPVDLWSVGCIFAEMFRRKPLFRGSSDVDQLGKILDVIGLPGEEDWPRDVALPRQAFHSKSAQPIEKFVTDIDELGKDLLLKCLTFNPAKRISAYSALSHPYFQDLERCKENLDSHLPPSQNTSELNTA
Sequence of UniProt P06239 (whole entry, looked up): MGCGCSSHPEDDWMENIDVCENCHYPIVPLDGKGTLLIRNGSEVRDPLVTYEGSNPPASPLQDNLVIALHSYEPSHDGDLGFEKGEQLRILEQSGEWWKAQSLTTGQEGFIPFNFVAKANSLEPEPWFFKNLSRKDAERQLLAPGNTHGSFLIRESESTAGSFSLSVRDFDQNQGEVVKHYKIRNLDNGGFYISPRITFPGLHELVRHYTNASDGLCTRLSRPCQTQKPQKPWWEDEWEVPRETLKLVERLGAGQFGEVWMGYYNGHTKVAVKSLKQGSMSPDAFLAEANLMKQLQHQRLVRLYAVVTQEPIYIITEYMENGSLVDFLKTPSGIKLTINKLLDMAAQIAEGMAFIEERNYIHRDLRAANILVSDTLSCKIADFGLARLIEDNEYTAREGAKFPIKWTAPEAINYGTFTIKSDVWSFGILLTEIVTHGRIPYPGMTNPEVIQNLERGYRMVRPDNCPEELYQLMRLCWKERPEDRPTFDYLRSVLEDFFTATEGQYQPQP
Sequence of UniProt Q9UBN7 (whole entry, looked up): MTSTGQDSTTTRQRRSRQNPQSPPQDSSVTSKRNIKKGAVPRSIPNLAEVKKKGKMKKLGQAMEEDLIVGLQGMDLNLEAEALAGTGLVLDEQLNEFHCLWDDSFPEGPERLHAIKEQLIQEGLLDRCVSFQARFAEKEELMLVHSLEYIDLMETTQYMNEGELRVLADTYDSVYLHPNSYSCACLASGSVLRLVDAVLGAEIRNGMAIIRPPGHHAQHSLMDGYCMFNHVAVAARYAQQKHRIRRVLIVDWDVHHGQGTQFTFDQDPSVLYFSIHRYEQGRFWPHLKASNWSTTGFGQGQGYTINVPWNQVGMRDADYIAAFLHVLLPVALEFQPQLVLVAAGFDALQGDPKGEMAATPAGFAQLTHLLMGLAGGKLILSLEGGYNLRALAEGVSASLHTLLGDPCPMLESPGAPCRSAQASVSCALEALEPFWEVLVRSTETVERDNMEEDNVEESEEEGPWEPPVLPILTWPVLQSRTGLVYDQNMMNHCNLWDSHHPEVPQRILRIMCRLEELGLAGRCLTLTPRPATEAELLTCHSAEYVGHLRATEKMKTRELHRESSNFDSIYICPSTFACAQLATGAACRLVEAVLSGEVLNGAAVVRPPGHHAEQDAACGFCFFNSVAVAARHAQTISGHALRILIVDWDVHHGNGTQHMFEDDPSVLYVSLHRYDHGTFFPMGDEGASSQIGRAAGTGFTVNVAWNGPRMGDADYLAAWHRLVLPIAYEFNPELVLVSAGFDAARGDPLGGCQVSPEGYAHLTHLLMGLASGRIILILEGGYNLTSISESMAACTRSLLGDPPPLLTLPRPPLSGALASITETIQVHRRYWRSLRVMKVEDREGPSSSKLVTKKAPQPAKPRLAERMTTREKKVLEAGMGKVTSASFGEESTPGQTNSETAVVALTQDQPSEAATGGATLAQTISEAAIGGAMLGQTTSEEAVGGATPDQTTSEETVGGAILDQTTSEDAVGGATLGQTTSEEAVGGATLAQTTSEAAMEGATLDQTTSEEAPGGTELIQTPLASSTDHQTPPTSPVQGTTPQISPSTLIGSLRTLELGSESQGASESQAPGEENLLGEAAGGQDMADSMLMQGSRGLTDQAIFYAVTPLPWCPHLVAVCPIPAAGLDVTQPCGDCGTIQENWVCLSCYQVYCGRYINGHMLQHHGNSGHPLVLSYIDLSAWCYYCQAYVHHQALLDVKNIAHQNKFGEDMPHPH
Sequence of UniProt P18089 (whole entry, looked up): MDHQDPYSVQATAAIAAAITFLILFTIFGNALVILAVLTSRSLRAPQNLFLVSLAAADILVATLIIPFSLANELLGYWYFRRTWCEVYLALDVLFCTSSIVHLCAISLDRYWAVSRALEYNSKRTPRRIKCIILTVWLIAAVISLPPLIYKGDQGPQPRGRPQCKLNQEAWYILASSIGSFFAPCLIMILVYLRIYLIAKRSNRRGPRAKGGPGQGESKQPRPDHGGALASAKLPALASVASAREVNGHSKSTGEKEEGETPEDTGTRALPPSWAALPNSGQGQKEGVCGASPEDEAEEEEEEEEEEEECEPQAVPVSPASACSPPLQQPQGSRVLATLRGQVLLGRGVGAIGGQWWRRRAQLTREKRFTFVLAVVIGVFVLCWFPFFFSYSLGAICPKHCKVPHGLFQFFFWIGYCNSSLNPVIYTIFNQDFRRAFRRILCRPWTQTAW
Sequence of UniProt P29322 (whole entry, looked up): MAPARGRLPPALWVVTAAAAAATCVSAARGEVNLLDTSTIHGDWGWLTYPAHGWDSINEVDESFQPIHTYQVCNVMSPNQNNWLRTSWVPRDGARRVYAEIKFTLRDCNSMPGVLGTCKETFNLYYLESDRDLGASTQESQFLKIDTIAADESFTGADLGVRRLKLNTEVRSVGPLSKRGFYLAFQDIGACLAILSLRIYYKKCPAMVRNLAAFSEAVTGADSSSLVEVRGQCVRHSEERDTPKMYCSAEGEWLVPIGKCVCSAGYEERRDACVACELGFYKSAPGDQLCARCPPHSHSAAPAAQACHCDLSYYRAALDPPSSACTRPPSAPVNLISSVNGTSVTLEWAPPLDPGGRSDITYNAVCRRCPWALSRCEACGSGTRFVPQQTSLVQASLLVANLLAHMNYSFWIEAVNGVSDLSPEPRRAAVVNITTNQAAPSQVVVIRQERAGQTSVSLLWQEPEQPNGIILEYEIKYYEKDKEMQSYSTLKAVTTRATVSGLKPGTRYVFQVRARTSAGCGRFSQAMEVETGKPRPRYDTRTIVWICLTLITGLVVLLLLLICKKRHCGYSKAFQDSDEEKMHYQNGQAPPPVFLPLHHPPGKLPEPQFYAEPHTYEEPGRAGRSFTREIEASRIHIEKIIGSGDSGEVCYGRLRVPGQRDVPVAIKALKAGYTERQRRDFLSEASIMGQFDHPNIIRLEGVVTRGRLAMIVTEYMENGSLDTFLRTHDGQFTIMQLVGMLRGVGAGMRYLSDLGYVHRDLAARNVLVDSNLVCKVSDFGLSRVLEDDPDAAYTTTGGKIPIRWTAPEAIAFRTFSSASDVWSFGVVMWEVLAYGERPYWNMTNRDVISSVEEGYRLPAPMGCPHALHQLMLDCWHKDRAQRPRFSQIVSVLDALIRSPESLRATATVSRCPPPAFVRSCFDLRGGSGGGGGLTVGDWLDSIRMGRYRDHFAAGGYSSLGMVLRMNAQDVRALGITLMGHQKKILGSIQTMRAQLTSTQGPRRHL

SMILES = COC(=O)c1sc(C(C)(C)C)cc1NC(=O)Nc1ccc(Oc2ccccc2)cc1; target or system = Staphylococcus aureus; assay = microbial growth; test system = NCTC8325; endpoint = MIC; result = > 100 µM
SMILES = Cc1ccc(C(C)c2ccc(NC(=O)CN(C)c3ccccc3N3CCCC3=O)cc2)cc1 (stereo not drawn); target or system = Plasmodium falciparum; assay = parasite growth; test system = 3D7; setting = 72 h, blood stage; endpoint = EC50; result = 455 nM
SMILES = Cc1cc(Oc2ncccc2CN2CCN(c3ccc([N+](=O)[O-])cc3Cl)CC2)ccc1-c1c(C)c(=O)[nH]c(=O)n1C; target or system = ADRA2B (Homo sapiens, UniProt P18089); assay = ligand displacement, radioligand; endpoint = Ki; result = 2320 nM
SMILES = CCCS(=O)(=O)Oc1ccc(C=NNC(=O)CSc2nc3ccc(Cl)cc3c(=O)n2-c2ccccc2)cc1OC; target or system = Pseudomonas aeruginosa; assay = microbial growth, well diffusion; setting = 20 µg/mL; endpoint = inhibition zone; result = 2 mm
SMILES = CC(=O)NC[C@H]1CN(c2ccc(N3CCOCC3)c(F)c2)C(=O)O1; target or system = Staphylococcus epidermidis; assay = microbial growth, broth dilution; setting = clinical isolate; endpoint = MIC90; result = 1 µg/mL (≈ 2.96 µM)
SMILES = O=C(O)CCc1ccccc1; target or system = Cryptosporidium parvum; assay = parasite growth, imaging; test system = HCT-8; setting = 1 mM, 24 h, intracellular; endpoint = activity vs control; result = 74.7%
SMILES = CC1(C)OC[C@@]2(C)[C@H]3CC[C@@H]4CN(Cc5ccccc5)[C@@H](C5=CCOC5=O)C[C@H]4[C@]3(C)CC[C@H]2O1; target or system = unidentified human coronavirus; assay = cytopathic effect; test system = MRC5; setting = 25 µM, 72 h; endpoint = inhibition; result = 13.4%
SMILES = COc1cc(C#CC(=O)c2ccccc2Cl)ccc1O; target or system = Pseudomonas aeruginosa; assay = microbial growth, absorbance; setting = 100 µM, 24 h; endpoint = activity vs control; result = 96%
SMILES = C#CCON=C1C=CC(=C(C#N)c2ccccc2)C=C1; target or system = Candida tropicalis; assay = microbial killing, broth dilution; test system = ATCC13803; setting = 48 h; endpoint = MFC; result = 32 µg/mL (≈ 123 µM)
SMILES = NCCCC(=O)O; target or system = Cryptosporidium parvum; assay = parasite growth, imaging; test system = HCT-8; setting = 1 mM, 24 h, intracellular; endpoint = activity vs control; result = 96.5%
SMILES = CN(Cc1ccc(C(C)(C)C)cc1)Cc1cccc2ccccc12; target or system = Trichophyton rubrum; assay = microbial growth, disc diffusion; test system = ATCC28188; setting = 0.016 µg/mL, 6 days; endpoint = inhibition zone; result = ≥ 55 mm
SMILES = COc1cc(C#CC(=O)c2ccc(Cl)cc2)ccc1O; target or system = Pseudomonas aeruginosa; assay = microbial growth, absorbance; setting = 10 µM, 24 h; endpoint = activity vs control; result = 101%
SMILES = N#Cc1cccc2cc[nH]c12; target or system = Cryptosporidium parvum; assay = parasite growth; test system = HCT-8; setting = 24 h, intracellular; endpoint = EC90; result = 505000 nM
SMILES = Cc1ccc(Cc2ccc(NC(=O)CN(C)c3ccccc3N3CCCC3=O)cc2)cc1; target or system = Plasmodium falciparum; assay = parasite growth; test system = 3D7; setting = 72 h, blood stage; endpoint = EC50; result = 728 nM
SMILES = O=C(CO)[C@H](O)[C@H](O)COP(=O)(O)O; target or system = Cryptosporidium parvum; assay = parasite growth, imaging; test system = HCT-8; setting = 1 mM, 24 h, intracellular; endpoint = activity vs control; result = 103%
SMILES = C#CCC(Cc1cnc2nc(N)nc(N)c2n1)c1ccc(C(=O)N[C@@H](CCC(=O)O)C(=O)O)cc1 (stereo partly drawn); target or system = Trypanosoma cruzi; assay = parasite growth, absorbance; test system = Vero, TULAHUEN; setting = 96 h, intracellular, amastigote; endpoint = IC50; result = 120 nM
SMILES = CCOc1cc2ncc(C#N)c(Nc3ccc(OCc4ccccn4)c(Cl)c3)c2cc1NC(=O)/C=C/CN(C)C; target or system = Staphylococcus aureus; assay = microbial growth; test system = NCTC8325; endpoint = MIC; result = > 30 µM
SMILES = O=C1CCN2C(=O)c3ccccc3C2C(=O)Nc2ccc(F)cc21 (stereo not drawn); target or system = Schistosoma mansoni; assay = parasite growth; setting = 10 µM, 72 h, larva; endpoint = inhibition; result = 33%
SMILES = CCC(C)C(=O)C#Cc1ccc(O)c(OC)c1 (stereo not drawn); target or system = Pseudomonas aeruginosa; assay = microbial growth, absorbance; setting = 10 µM, 24 h; endpoint = activity vs control; result = 105%
SMILES = C=CC(=O)N1CCC(COCC(=O)N2CCN(c3nc(-c4cnc(N)nc4C(F)F)nc(N4CCOC[C@@H]4C)n3)CC2)CC1; target or system = LCK (Homo sapiens, UniProt P06239); assay = binding, competition with immobilised ligand; setting = 1 µM; endpoint = remaining binding; result = 94%
SMILES = CCCCN(c1ccc(C)cc1)c1ccc(NC(=O)CN(C)c2ccccc2N2CCCC2=O)cc1; target or system = Plasmodium falciparum; assay = parasite growth; test system = 3D7; setting = 72 h, blood stage; endpoint = EC50; result = 35 nM
SMILES = O=C(C#Cc1ccc(F)c(F)c1)c1ccccc1Cl; target or system = Pseudomonas aeruginosa; assay = microbial growth, absorbance; setting = 10 µM, 24 h; endpoint = activity vs control; result = 98%
SMILES = COC(=O)N[C@H](C(=O)N1CC2(CC2)C[C@H]1c1nc(-c2ccc3c(c2)C(F)(F)c2cc(-c4ccc5[nH]c([C@@H]6[C@H]7CC[C@H](C7)N6C(=O)[C@@H](NC(=O)OC)C(C)C)nc5c4)ccc2-3)c[nH]1)C(C)C; target or system = Trypanosoma cruzi; assay = parasite growth, absorbance; test system = Vero, TULAHUEN; setting = 96 h, intracellular, amastigote; endpoint = IC50; result = 40 nM
SMILES = O=C(NC[C@H](O)CO)c1ccncc1Nc1ccc(I)cc1F; target or system = Staphylococcus aureus; assay = microbial growth; test system = NCTC8325; endpoint = MIC; result = > 30 µM
SMILES = COc1cc(-c2cncc3c2CN(C)Cc2cc(N4CCNCC4)ccc2-3)cc(OC)c1OC; target or system = EPHA8 (Homo sapiens, UniProt P29322); assay = enzyme activity, inhibitor; setting = 1 µM; endpoint = remaining activity; result = 96%
SMILES = CN(Cc1ccc(C2(C(F)(F)F)CC2)cc1)Cc1cccc2ccccc12; target or system = Trichophyton rubrum; assay = microbial growth, disc diffusion; test system = ATCC28188; setting = 0.001 µg/mL, 6 days; endpoint = inhibition zone; result = 16.5 mm
SMILES = CC(C)c1ccc(OS(=O)(=O)Oc2cccc(C(=O)NO)c2)cc1; target or system = HDAC6 (Homo sapiens, UniProt Q9UBN7); assay = enzyme activity, inhibitor, fluorescence; endpoint = Ki; result = 626 nM
SMILES = O=C(C#Cc1ccc(F)c(F)c1)c1ccc(Cl)cc1; target or system = Pseudomonas aeruginosa; assay = microbial growth, absorbance; setting = 10 µM, 24 h; endpoint = activity vs control; result = 98%
SMILES = Cc1ccc(Oc2ccc(NC(=O)C(C)Nc3ccccc3N3CCCC3=O)cc2)cc1 (stereo not drawn); target or system = Plasmodium falciparum; assay = parasite growth; test system = 3D7; setting = 72 h, blood stage; endpoint = EC50; result = > 10000 nM
SMILES = C#Cc1cccc(Nc2ncnc3cc(OCCOC)c(OCCO)cc23)c1; target or system = Staphylococcus aureus; assay = microbial growth; test system = NCTC8325; endpoint = MIC; result = > 30 µM
SMILES = COC(=O)Nc1nc2ccc(C(=O)c3ccccc3)cc2[nH]1; target or system = Cryptococcus neoformans; assay = microbial growth, broth dilution; setting = 72 h, clinical isolate; endpoint = IC90; result = 1250 nM
SMILES = Nc1ncnc2[nH]cnc12; target or system = Cryptosporidium parvum; assay = parasite growth, imaging; test system = HCT-8; setting = 1 mM, 24 h, intracellular; endpoint = activity vs control; result = 79.8%
SMILES = Oc1cccc(-c2nc(N3CCOCC3)c3oc4ncccc4c3n2)c1; target or system = Staphylococcus aureus; assay = microbial growth; test system = NCTC8325; endpoint = MIC; result = > 30 µM
SMILES = CC1(C)S[C@@H]2[C@H](NC(=O)[C@H](N)c3ccccc3)C(=O)N2[C@H]1C(=O)O; target or system = Streptococcus pneumoniae; assay = microbial growth; test system = PRSP; setting = clinical isolate; endpoint = MIC90; result = 16 µg/mL (≈ 45.8 µM)
SMILES = COc1cc(C#CC(=O)CC(C)C)ccc1O; target or system = Pseudomonas aeruginosa; assay = microbial growth, absorbance; setting = 10 µM, 24 h; endpoint = activity vs control; result = 90%
SMILES = O=C(NOC[C@H](O)CO)c1ccc(F)c(F)c1Nc1ccc(I)cc1F; target or system = Staphylococcus aureus; assay = microbial growth; test system = NCTC8325; endpoint = MIC; result = > 30 µM
SMILES = CNc1ncc2c(/C=C/C(=O)N3CCC(OC)CC3)nn(Cc3cccc(C(F)(F)F)c3)c2n1; target or system = Cyclin-dependent kinase 6, with cyclin D3 (CDK6, Homo sapiens, UniProt Q00534); assay = enzyme activity, inhibitor, radiometric; setting = 1 µM; endpoint = remaining activity; result = 87%
SMILES = Cc1ccc(Oc2ccc(NC(=O)CNc3ccccc3N3CCCCS3(=O)=O)cc2)cc1; target or system = Plasmodium falciparum; assay = parasite growth; test system = 3D7; setting = 72 h, blood stage; endpoint = EC50; result = > 10000 nM
SMILES = O=C(O)Cc1ccc(O)cc1; target or system = Cryptosporidium parvum; assay = parasite growth, imaging; test system = HCT-8; setting = 1 mM, 24 h, intracellular; endpoint = activity vs control; result = 106%
SMILES = Cc1ccc(Oc2ccc(NC(=O)CNc3ccccc3-n3cccn3)cc2)cc1; target or system = Plasmodium falciparum; assay = parasite growth; test system = 3D7; setting = 72 h, blood stage; endpoint = EC50; result = > 10000 nM
SMILES = CC(C)(C)Cn1c(N)nc2ccc(-c3[nH]c(C(C)(C)C)nc3-c3ccc(F)cc3)nc21; target or system = Staphylococcus aureus; assay = microbial growth; test system = NCTC8325; endpoint = MIC; result = > 30 µM
SMILES = O=C(CNc1ccccc1N1CCCC1=O)Nc1ccc(Oc2ccccc2Cl)cc1; target or system = Plasmodium falciparum; assay = parasite growth; test system = 3D7; setting = 72 h, blood stage; endpoint = EC50; result = > 10000 nM
SMILES = Cc1cc(Oc2ncccc2CN2CCN(c3ccccc3C(F)(F)F)CC2)ccc1-c1c(C)c(=O)[nH]c(=O)n1C; target or system = ADRA2C (Homo sapiens, UniProt P18825); assay = ligand displacement, radioligand; endpoint = Ki; result = 18.4 nM
SMILES = COc1cc(C#C[C@H](O)CC(C)C)ccc1O; target or system = Pseudomonas aeruginosa; assay = microbial growth, absorbance; setting = 10 µM, 24 h; endpoint = activity vs control; result = 91%
SMILES = CCc1ccc(NC(=O)Nc2ccc(Cl)c(C(F)(F)F)c2)cc1; target or system = Staphylococcus aureus; assay = microbial growth; test system = NCTC8325; setting = 24 h; endpoint = MIC; result = 0.7 µM (≈ 0.24 µg/mL)
SMILES = COc1ccc2cc[nH]c2c1; target or system = Cryptosporidium parvum; assay = parasite growth; test system = HCT-8; setting = 24 h, intracellular; endpoint = EC90; result = 746000 nM
SMILES = Cc1cccc(N(O)N=Nc2ccc(S(=O)(=O)Nc3nccs3)cc2)c1; assay = ABTS scavenging; setting = 20 µg/mL; endpoint = inhibition; result = 30.5%
SMILES = O=C(O)Cc1c[nH]c2ccc(O)cc12; target or system = Cryptosporidium parvum; assay = parasite growth, imaging; test system = HCT-8; setting = 1 mM, 24 h, intracellular; endpoint = activity vs control; result = 101%
SMILES = Cc1ccccc1C(=O)C#Cc1ccc(F)c(F)c1; target or system = Pseudomonas aeruginosa; assay = microbial growth, absorbance; setting = 100 µM, 24 h; endpoint = activity vs control; result = 98%
SMILES = Cc1ccc(C(O)c2ccc(NC(=O)CN(C)c3ccccc3N3CCCC3=O)cc2)cc1 (stereo not drawn); target or system = Plasmodium falciparum; assay = parasite growth; test system = 3D7; setting = 72 h, blood stage; endpoint = EC50; result = 4830 nM
SMILES = O=S(=O)(Nc1nccs1)c1ccc(N=NN(O)c2ccccc2)cc1; assay = ABTS scavenging; setting = 20 µg/mL; endpoint = inhibition; result = 43.8%

Some of these lines once more:
SMILES = C#CCON=C1C=CC(=C(C#N)c2ccccc2)C=C1; target or system = Candida tropicalis; assay = microbial killing, broth dilution; test system = ATCC13803; setting = 48 h; endpoint = MFC; result = 32 µg/mL (≈ 123 µM)
SMILES = Nc1ncnc2[nH]cnc12; target or system = Cryptosporidium parvum; assay = parasite growth, imaging; test system = HCT-8; setting = 1 mM, 24 h, intracellular; endpoint = activity vs control; result = 79.8%
SMILES = O=C(CO)[C@H](O)[C@H](O)COP(=O)(O)O; target or system = Cryptosporidium parvum; assay = parasite growth, imaging; test system = HCT-8; setting = 1 mM, 24 h, intracellular; endpoint = activity vs control; result = 103%
SMILES = CC(C)c1ccc(OS(=O)(=O)Oc2cccc(C(=O)NO)c2)cc1; target or system = HDAC6 (Homo sapiens, UniProt Q9UBN7); assay = enzyme activity, inhibitor, fluorescence; endpoint = Ki; result = 626 nM
SMILES = O=C(NOC[C@H](O)CO)c1ccc(F)c(F)c1Nc1ccc(I)cc1F; target or system = Staphylococcus aureus; assay = microbial growth; test system = NCTC8325; endpoint = MIC; result = > 30 µM
SMILES = COC(=O)Nc1nc2ccc(C(=O)c3ccccc3)cc2[nH]1; target or system = Cryptococcus neoformans; assay = microbial growth, broth dilution; setting = 72 h, clinical isolate; endpoint = IC90; result = 1250 nM
SMILES = C#Cc1cccc(Nc2ncnc3cc(OCCOC)c(OCCO)cc23)c1; target or system = Staphylococcus aureus; assay = microbial growth; test system = NCTC8325; endpoint = MIC; result = > 30 µM
